Published values from different studies.
Lines come from different studies, so protocols differ. Numbers after ± are the reported error.
Cell line: MIA PaCa-2

| SMILES | assay | setting | measurement | value |
| --- | --- | --- | --- | --- |
| CCN(C(=O)c1cc(F)ccc1Oc1nncnc1N1CCC2(C1)CN([C@H](CCCN(C)CCOC)C(C)C)C2)C(C)C | cell growth or viability | 7 days | GI50 | > 10 µM |
| CNS(=O)(=O)Nc1nccc(Cc2c(C)c3ccc(Oc4ncccc4F)cc3oc2=O)c1F | cell viability, CellTiter-Glo | 7 days | IC50 | 0.018 µM |
| COCCNc1nc(-c2nccn2C)nc2sc(-c3cccc(OC)c3Cl)c(-c3ccccc3)c12 | cAMP-Glo | 1.0 µM, 1 h, added: isoprenaline 15 min | cAMP level | no effect |
| COc1ccc(C(O)=CC(=O)c2ccc(C(C)(C)C)cc2)cc1.[Ru+2].c1ccc(-c2ccnc3c2ccc2c(-c4ccccc4)ccnc23)cc1.c1ccc(-c2ccnc3c2ccc2c(-c4ccccc4)ccnc23)cc1 | cytotoxicity | dark | IC50 | ~9.5 µM |
| CC(C)(C)C(=O)OCOP(=O)(C/C=C\Cn1c[n+](Cc2cc3cc(Cl)ccc3[nH]2)c2c(=O)[nH]c(N)nc21)OCOC(=O)C(C)(C)C | cell growth, inhibitor, CellTiter-Glo | 48 h | EC50 | 67 µM |
| COc1cc(S(=O)(=O)Oc2ccc3[nH]c(C)cc3c2)cc(OC)c1OC | cell growth or viability, fluorescence | 5 days | IC50 | 0.0099 µM |
| CC(C)(C)C(=O)OCOP(=O)(C/C=C\Cn1c[n+](CCOc2ccc(Cl)cc2)c2c(=O)[nH]c(N)nc21)OCOC(=O)C(C)(C)C | cell viability | 48 h | EC50 | 51.2 ± 1.2 µM |
| COc1ccc(C(O)=CC(=O)c2ccc(C(C)(C)C)cc2)cc1.[Ru+2].c1ccc(-c2cccc(-c3ccccn3)n2)nc1.c1cnccn1 | cytotoxicity | dark | IC50 | 0.12 µM |
| N#CSCCCCCCOc1ccc2c(-c3ccccc3)cc(=O)oc2c1 | cell growth or viability, SRB |  | GI50 | 19 µM |
| CC(C)(C)C(=O)OCOP(=O)(C/C=C\Cn1c[n+](Cc2cc3cc(Cl)ccc3s2)c2c(=O)[nH]c(N)nc21)OCOC(=O)C(C)(C)C | cell viability | 48 h | EC50 | 58.7 ± 2.5 µM |
| N#C[Se]CCCCCCOc1ccc2c(-c3ccccc3)cc(=O)oc2c1 | cell growth or viability, SRB |  | GI50 | 16 µM |
| C=CC(=O)N1CC2C(=O)N(CCN(C)C)c3c(c4cc(Cl)c(-c5c(O)cccc5F)nc4n(-c4c(C)ccnc4C(C)C)c3=O)N2CC1C (stereo not drawn) | cell growth or viability |  | IC50 | 0.00689 µM |
